# Published values gathered from unrelated publications.
# Every numbered part comes from another study and shows a few of its results, in no order. Positions count from the first letter of the parent shown.

# Sample 1 — technique: RNA Bind-n-Seq; molecule type: RNA; medium: in vitro; tested at: 200 nM; notes: whole 134-nt RNA, ends assumed; together with: 150 mM LiCl; reference: input library; reading: higher = stronger binding; each molecule: 7-deaza-guanosine replaces G
# Target: Ras GTPase-activating protein-binding protein 1, full length (G3BP1, Homo sapiens, UniProt Q13283)
# UniProt Q13283, sequence (whole entry, looked up): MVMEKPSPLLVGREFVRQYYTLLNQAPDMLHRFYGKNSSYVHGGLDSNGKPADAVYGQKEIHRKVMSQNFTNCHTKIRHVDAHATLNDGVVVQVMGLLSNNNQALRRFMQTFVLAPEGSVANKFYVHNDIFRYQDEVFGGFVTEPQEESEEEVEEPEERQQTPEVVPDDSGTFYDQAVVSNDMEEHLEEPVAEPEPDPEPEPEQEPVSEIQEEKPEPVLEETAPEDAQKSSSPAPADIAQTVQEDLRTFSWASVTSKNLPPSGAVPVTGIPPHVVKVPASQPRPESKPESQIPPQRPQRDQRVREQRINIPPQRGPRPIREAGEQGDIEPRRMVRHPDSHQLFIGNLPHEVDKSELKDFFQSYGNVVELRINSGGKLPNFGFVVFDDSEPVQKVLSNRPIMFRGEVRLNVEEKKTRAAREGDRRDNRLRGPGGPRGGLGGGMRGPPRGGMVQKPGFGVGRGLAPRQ
# Constant ends, left off below: GGGAGUUCUACAGUCCGACGAUC … UGGAAUUCUCGGGUGUCAAGG
Sequence,log2 enrichment
UAACUCUAGAGGAGGAUCUGAUGGAUAUGGCAGUGGACGUGGAUUUGGGGAUGGCUAUAAUGGGUAUGGAGGAGGACCUGGAGGUGGCAA,-0.114
AAGUCCUGUGCUACACAUCGUAUGUACCGAAUCGGGUUUGGGAAAGGGUUUUUGGGAAAGUAUUAUGUUACGCCGUUCGGAUCUGCACUU,-0.94
AGUCCUGUGCUACACAUCGUAUGUACCGAAUCGGGAAAGGGUUUGGGAAAAAAAGGGAAAGUAUUAUGUUACGCCGUUCGGAUCUGCACU,-1.82
UGGGAGGUGGAUUUUGUUUAUUUUUUUAGUUCAUUUCCAGGGGUGGGAAUUUUUUUUUAAUAUGUGUCAUGAAUAAAGUUGUUUUUGAAA,-1.11
GUCCUGUGCUACACAUCGUAUGUACCGAAUCGGGGAAAAAGGGGAAAGGGGAAAGGGGAAAGUAUUAUGUUACGCCGUUCGGAUCUGCAC,0.399
CUCAAGUCCUGUGCUACACAUCGUAUGUACCGAAUCGGGCCGGGCCGGGCCGGAAAGUAUUAUGUUACGCCGUUCGGAUCUGCACUUCCA,0.789

# Sample 2 — technique: competition protein-binding microarray; molecule type: double-stranded DNA, one strand shown; medium: in vitro; tested at: 2 µM; together with: Pho4 competitor, 0.05 µM; reading: higher = stronger binding; constant ends, left off below: … GTCTTGATTCGCTTGACGCTGCTG
# Target: Centromere-binding protein 1, full length, His-tagged (CBF1, Saccharomyces cerevisiae, UniProt P17106, residues 1-351)
# UniProt P17106, sequence (whole entry, looked up): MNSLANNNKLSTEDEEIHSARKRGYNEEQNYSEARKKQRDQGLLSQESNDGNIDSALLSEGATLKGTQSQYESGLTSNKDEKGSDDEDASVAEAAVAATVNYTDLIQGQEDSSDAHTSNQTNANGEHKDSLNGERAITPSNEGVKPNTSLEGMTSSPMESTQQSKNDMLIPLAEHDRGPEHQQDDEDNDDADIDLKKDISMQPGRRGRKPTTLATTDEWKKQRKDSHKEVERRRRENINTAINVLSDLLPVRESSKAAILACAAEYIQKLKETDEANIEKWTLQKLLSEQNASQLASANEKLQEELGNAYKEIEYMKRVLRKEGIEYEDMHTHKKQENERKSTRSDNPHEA
# Notes: whole 60-bp probe, lowest competitor level
Sequence,fluorescence intensity [a.u.]
CATACCCAACCTTGGATAGTGGGTGAAGATATTTGT,74.6
CGCCTTCTAATGGACATTCTTCTCAAACTCTACAAA,64.1
TCGGTTACGTACGATAACGTGATTGTGCCACAGGAG,489
CCACAAGGAATTTGGAACGTGCCGACGTTACTATTG,104
ACTTTGTTATTAATCCACGTGAGGACCAAATCTATG,1780
TACAGAGGAGATAAAGGCGTGCCAGCAATTGAAGAG,92.5
ACTATGATATTATTCCATGTGTCGCAAAACCAGAAA,96.5
CGTCCTAGTGATTGGGCGGTGGGTGCCATGAGGAAG,73.5
TATTTTTTTAAGCAGAACGTGCTTTGCTCTCCCTTT,104
CAGCATTGCTACAGACACGTGAGTAATGCATTGTGT,1670
CTTTAAGTGCCGGGACAAGTTCCTGGTTATCGCGTT,56.6
CCGGATAATCTACATCATGTGGTACGTTAACGATGT,562
AGGAAAACAAATGAATGCGTGCCGAAAGCGGAAAAT,82.2
AAGTTATGATATCTGCACGTGGAACACTTCCAATCT,821
TTGGTCCAGTTCTCGCCCGTGATGGGAGAACAAGTA,100
TACTAGCACTGCCACACCGTGCAATCCATACAGGAT,59.1
CATACCCAACCTTGTCACGTTACTTAAGATATTTGT,1090
ACAGTGTCAAGCTGGCACGATCGTTCTTGCGCAGTC,61.5
AAAGCGGTAATTTGTCCAGTGGGTGCAGATATCTAT,70.6
TTGACGTTGCATATCAACGTGCCAGATCCCGGAATA,111
AAATTACTAAGTTGGAGCGTGGGTGACGCCGTATGA,61.7
TGCGCAACAACTTGCTGAGTGGGTGTATGTCTAGAA,69.3
TTATACCACCATTGCCACGTTCACCAAACAATATGT,78.2
AAATTACTAAGTTGAGTGGTGGGTGACGCCGTATGA,64.2
AGAAAAAAATCATCAAATGTGACGGGCAAATGGGGC,76.9

# Sample 3 — technique: DHFR PCA, deep sequencing; medium: yeast; together with: (+)-ABA 710 µM; reference: wild-type fitted maximum; reading: higher = stronger binding
# Target: ABI1, truncated, D143A, DHFR fusion (Arabidopsis thaliana)
# Notes: methotrexate growth selection, single substitutions
# Starting sequence: PYL1, truncated, DHFR fusion (Arabidopsis thaliana); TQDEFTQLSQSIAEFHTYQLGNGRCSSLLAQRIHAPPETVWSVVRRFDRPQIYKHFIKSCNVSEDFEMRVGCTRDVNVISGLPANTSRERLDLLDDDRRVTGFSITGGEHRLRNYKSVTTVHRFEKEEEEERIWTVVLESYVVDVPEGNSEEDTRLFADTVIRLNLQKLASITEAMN
Substitution,relative binding score [%]
E174V,93.5
G102V,62.4
V76L,98.8
R45A,81.8
R113H,106
R32H,99.7
A84Q,28.7
E38G,97.6
R98Q,108
L94Q,77.1
R98D,96.4
L29P,15.8
Y141H,21.2
T39I,98.6
S11C,106
H110N,97.8
S140H,26.6
R90L,83.4
E151R,99.7
F47A,19.6
D92F,75.8
F66V,99.3
L169P,0.502
C25L,92.1
E4Q,95.9

# Sample 4 — target: CREB3, bZIP domain (human); technique: DHFR protein complementation; medium: yeast; reference: wild-type JUN-FOS pair; reading: higher = stronger binding
# Notes: single substitutions, most at no-binding floor
# Starting sequence: JUN, bZIP domain (human); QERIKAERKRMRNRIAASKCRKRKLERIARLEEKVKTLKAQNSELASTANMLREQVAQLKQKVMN; partner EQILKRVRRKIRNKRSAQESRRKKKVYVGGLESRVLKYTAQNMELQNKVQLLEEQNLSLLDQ
Substitution,binding fitness [natural log]
S43A,-1.33
V56N,-1.39
L31D,-1.41
A57I,-1.43
A57S,-1.5
N42I,-1.42
T48D,-1.48
A46F,-1.37
N42C,-1.34
L52C,-1.47
K39A,-1.44

# Sample 5 — technique: protein-binding microarray; molecule type: double-stranded DNA, one strand shown; medium: in vitro; tested at: 2540 nM top; notes: 60-bp whole probe; together with: salmon DNA 0.4 mg/ml; reference: random background probes; reading: higher = stronger binding; constant ends, left off below: GCCTAGCAC … GTCTTGATTCGCTTGACGCTGCTG
# Target: Interferon regulatory factor 3, full length, phosphomimetic (IRF3, Homo sapiens, UniProt Q14653, residues 1-427, S386D/S396D/S398D/S402D/T404D/S405D)
# UniProt Q14653, sequence (whole entry, unmodified, looked up): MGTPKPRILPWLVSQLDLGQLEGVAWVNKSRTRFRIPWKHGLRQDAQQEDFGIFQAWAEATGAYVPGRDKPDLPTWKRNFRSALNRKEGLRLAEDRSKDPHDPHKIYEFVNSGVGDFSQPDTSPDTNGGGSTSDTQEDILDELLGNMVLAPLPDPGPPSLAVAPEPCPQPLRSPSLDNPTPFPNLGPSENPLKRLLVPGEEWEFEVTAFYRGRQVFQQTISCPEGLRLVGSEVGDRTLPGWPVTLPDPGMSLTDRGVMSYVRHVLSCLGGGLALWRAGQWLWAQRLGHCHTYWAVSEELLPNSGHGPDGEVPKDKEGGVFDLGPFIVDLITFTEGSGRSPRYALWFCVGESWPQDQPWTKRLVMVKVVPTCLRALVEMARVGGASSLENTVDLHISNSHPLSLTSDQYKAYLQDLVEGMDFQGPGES
Sequence,fitted relative affinity [z-score]
GACGGTTTCGGTTACGGGACGTGCTAG,7.78
GACAATTTCAGTTCCGAGACGTGCTAG,2.89
ATTTTTATCAAATGTGGGATTGTGCTA,0.757
TTCTCTTTCCTTCTTGATGCGTGCTAG,7.06
TTCGGACTGGGTCTCGGTTAGTGCTAG,-0.483
TTGGATTTCAGACTGGATTAGTGCTAG,0.219
AACGATATCGGGACTGGAGACGTGCTA,0.107
GTGAGTCCCACATCTCTGTCCGTGCTA,-0.285
GATGGTATCGGGTATCGGGACGTGCTA,1.54
GACAATTTCGGGACTGGAGACGTGCTA,1.58
TTGGATATCGGGTTTCGATTAGTGCTA,1.61
TCACCTTTTGCTTTACTACTGTGCTAG,2.65
GACGAACTGGGTCTCGGGACGTGCTAG,-0.519
TTAGATTTCTGTCTCGATTAGTGCTAG,2.1
TCATCTCTGCTTGTGTCACTGTGCTAG,0.728
TTAGGACTGGACTTACGGTTAGTGCTA,-0.493
TGAGGTTTCGGTTCCGGTTAGTGCTAG,10.7
TTAGGTCTCGCTATCGGTTAGTGCTAG,0.471
GAAGATTTCAGTCTCGAGACGTGCTAG,1.99

# Sample 6 — target: CCNA2, cyclin fold, Cln2 fusion (human); technique: yeast growth competition, sequencing; medium: yeast; notes: strong parent motif; reference: not given; reading: higher = stronger binding
# Starting sequence: PKN2 docking peptide (human); VSAVQKLDFSDTM; partner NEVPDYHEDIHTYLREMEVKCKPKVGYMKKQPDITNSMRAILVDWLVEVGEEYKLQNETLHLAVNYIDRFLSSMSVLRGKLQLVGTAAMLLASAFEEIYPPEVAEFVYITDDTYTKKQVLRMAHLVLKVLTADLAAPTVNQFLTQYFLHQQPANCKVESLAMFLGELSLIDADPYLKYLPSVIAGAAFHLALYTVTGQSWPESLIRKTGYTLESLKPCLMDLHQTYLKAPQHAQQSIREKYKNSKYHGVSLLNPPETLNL
Substitution,normalised enrichment score
T12M,2.51
F9R,0.195
D11H,2.21
D8G,-0.449
V1M,2.38
A3E,-0.532
K6R,3.25
V1G,1.67
A3M,0.219
M13S,2.51
A3F,1.06
Q5A L7A,-0.0128
V4Y,1.53
D11V,1.74
L7D,-0.659
L7W,-0.218
A3N,-0.276
K6L,-0.165
V4C,2.52
V4A,1.43
D11T,2.15
V4L,0.572
F9T,-0.26
D11K,1.5
F9P,0.161

# Some of these lines once more (sample 6):
Substitution,normalised enrichment score
D11V,1.74
L7D,-0.659
L7W,-0.218
A3N,-0.276
K6L,-0.165
V4C,2.52
V4A,1.43
D11T,2.15
V4L,0.572
F9T,-0.26
D11K,1.5
F9P,0.161
